Measurements collected from several papers.
Compare with care: the assays were run in different laboratories. Several values in a cell are separate wells, animals, samples, runs or records. ± gives the spread as reported.
UniProt P42866, sequence (whole entry, looked up): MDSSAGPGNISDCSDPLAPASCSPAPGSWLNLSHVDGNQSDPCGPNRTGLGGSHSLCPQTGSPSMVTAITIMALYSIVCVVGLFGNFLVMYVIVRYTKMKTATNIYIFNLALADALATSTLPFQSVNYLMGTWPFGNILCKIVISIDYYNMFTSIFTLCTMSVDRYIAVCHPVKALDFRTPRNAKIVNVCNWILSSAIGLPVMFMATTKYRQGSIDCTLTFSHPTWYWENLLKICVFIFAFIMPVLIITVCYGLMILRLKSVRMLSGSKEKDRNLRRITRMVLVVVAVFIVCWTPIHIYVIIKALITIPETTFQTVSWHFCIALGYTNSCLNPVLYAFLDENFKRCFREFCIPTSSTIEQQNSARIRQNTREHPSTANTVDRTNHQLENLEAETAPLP
UniProt O75884, sequence (whole entry, looked up): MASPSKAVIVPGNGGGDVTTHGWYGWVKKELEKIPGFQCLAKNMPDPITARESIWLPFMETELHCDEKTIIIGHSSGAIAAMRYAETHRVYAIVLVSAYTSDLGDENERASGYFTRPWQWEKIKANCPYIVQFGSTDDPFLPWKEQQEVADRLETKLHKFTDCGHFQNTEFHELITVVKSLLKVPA
UniProt Q13557, sequence (whole entry, looked up): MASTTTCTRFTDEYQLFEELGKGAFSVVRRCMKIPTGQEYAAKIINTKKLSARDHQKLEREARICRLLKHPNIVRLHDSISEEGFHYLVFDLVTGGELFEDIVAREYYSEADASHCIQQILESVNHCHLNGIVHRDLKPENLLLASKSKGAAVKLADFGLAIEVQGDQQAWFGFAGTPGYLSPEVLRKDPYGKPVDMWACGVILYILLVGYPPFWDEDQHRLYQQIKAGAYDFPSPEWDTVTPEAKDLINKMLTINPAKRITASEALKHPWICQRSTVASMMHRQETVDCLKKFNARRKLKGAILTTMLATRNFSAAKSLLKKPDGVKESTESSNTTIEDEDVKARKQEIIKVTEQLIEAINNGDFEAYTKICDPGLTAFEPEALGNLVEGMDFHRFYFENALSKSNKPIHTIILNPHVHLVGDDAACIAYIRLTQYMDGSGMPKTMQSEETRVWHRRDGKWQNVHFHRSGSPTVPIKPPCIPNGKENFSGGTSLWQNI
UniProt Q9UJ42, sequence (whole entry, looked up): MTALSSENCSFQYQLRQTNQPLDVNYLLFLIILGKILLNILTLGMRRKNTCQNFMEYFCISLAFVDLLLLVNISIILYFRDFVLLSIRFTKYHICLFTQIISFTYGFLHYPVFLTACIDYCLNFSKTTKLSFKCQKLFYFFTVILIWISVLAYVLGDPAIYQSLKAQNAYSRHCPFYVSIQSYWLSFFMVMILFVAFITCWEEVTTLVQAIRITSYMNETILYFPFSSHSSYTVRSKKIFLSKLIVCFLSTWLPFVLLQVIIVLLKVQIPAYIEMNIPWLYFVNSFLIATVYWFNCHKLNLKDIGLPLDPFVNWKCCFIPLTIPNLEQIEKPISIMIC
UniProt P11802, sequence (whole entry, looked up): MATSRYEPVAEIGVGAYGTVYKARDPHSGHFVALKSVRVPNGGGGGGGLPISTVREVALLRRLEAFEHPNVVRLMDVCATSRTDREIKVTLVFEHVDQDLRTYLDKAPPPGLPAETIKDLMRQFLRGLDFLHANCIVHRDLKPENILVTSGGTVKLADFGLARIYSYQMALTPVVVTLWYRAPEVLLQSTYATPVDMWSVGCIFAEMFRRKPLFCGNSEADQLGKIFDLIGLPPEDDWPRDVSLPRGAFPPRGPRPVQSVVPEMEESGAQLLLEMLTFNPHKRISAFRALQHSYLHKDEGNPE
UniProt P53779, sequence (whole entry, looked up): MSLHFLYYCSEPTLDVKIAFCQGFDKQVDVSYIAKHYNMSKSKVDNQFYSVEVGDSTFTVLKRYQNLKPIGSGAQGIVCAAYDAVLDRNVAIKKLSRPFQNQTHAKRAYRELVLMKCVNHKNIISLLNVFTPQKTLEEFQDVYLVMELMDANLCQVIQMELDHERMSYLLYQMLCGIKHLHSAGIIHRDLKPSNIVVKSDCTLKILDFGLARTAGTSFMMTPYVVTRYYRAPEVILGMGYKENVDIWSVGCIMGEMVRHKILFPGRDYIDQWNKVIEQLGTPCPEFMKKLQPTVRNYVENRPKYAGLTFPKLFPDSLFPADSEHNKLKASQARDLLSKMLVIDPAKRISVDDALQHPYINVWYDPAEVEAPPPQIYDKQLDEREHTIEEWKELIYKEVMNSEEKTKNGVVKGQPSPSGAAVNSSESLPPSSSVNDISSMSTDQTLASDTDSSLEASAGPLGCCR
UniProt G5EBR3, sequence (whole entry, looked up): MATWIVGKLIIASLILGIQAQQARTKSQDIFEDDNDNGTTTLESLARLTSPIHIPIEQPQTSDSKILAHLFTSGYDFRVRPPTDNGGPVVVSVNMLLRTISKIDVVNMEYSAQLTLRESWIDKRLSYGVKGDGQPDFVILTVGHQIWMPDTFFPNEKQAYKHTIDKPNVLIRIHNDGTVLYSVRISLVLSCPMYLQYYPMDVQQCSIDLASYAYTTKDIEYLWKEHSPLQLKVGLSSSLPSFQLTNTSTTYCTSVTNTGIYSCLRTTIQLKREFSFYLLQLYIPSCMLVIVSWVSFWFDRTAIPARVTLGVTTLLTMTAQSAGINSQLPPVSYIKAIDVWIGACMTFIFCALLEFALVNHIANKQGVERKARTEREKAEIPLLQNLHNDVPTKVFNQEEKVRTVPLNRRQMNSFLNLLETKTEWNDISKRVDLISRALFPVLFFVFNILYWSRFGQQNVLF
UniProt Q62351, sequence (whole entry, looked up): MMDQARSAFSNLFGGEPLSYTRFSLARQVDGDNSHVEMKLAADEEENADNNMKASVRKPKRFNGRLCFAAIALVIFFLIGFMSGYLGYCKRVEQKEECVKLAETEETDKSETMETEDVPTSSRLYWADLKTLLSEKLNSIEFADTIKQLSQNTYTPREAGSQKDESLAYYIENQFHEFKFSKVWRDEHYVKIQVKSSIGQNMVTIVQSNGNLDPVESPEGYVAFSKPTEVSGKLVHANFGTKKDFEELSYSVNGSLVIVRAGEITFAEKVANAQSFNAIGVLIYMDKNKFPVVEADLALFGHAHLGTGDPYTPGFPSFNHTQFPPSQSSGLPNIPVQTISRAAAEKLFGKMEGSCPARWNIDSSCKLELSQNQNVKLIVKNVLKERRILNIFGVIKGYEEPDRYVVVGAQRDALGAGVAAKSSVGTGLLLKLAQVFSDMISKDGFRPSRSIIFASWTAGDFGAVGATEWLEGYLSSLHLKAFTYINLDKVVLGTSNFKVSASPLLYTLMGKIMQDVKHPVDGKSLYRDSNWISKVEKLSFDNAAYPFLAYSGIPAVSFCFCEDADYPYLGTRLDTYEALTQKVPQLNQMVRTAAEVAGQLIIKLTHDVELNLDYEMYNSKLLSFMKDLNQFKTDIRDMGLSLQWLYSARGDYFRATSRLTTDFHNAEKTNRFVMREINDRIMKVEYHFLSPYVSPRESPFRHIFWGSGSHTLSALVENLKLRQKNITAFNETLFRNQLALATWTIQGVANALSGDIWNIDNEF
UniProt Q9NS75, sequence (whole entry, looked up): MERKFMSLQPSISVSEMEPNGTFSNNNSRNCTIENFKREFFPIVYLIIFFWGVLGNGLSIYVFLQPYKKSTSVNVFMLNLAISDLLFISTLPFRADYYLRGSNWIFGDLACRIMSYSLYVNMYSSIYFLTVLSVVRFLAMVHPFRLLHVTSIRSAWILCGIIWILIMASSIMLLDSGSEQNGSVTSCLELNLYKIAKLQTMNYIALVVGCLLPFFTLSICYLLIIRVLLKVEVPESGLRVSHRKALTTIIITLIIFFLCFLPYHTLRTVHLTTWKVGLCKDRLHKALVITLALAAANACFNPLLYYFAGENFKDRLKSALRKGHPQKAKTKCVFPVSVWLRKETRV
UniProt P57059, sequence (whole entry, looked up): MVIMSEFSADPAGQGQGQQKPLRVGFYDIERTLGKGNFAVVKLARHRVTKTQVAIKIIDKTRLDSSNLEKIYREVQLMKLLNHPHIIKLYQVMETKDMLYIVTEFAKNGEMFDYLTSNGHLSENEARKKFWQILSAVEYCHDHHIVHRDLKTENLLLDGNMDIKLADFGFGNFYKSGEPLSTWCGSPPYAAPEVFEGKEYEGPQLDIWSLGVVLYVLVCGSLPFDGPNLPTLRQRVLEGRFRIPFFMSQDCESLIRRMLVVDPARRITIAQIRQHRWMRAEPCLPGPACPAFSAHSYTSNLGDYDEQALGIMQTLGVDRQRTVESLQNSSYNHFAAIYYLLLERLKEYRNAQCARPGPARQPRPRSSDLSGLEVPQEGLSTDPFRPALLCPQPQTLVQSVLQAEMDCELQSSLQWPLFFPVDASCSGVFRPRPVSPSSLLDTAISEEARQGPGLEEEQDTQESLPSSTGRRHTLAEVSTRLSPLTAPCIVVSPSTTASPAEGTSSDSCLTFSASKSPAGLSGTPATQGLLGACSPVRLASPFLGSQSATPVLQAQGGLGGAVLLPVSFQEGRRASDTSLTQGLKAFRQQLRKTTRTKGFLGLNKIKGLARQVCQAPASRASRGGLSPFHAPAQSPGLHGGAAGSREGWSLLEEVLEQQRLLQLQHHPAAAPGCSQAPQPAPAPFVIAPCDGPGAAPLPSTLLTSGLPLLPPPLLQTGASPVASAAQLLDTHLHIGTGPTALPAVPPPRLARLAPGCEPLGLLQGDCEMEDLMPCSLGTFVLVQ

Structure (SMILES)	tested on	assay	system	conditions	scale	quantity	result
COc1cc(N)c(Cl)cc1C(=O)NC1CN2CCC1CC2 (stereo not drawn)	Probable G-protein coupled receptor 160 (GPR160, Homo sapiens, UniProt Q9UJ42)	β-arrestin recruitment, TANGO luminescence, item: GPR160	–	concentration not given	relative to: basal luminescence	log2 fold change	0.113
COc1cc(CCC[P+](c2ccccc2)(c2ccccc2)c2ccccc2)c(OC)c2c1OCO2.[I-]	HOP-62	SRB	–	–	–	TGI	-4.95 log M
CC[C@@H](C)[C@@H](NC(=O)[C@@H](Cc1ccc(O)cc1)NC(=O)[C@H]1CCCN1C(=O)[C@@H](CCCNC(=N)N)NC(=O)[C@H](N)Cc1c[nH]cn1)C(=O)N[C@H](C)C(=O)N[C@H](Cc1c[nH]cn1)C(=O)N[C@H](CCCNC(=N)N)C(=O)N[C@H](CCCCNC(=O)c1cccc(S(=O)(=O)F)c1)C(=O)N[C@H](Cc1ccc(O)cc1)C(=O)N[C@H](CO)C(=O)N[C@H](Cc1ccccc1)C(N)=O	Transferrin receptor protein 1 (Tfrc, Mus musculus, UniProt Q62351)	flow cytometry	MC-38	6 h, unit not given	relative to: 0 h	surface TFRC expression	0.724
CN1CCN(c2cc(-c3ccncc3)c(-c3ccc4ccccc4c3)nn2)CC1	Alpha-1D adrenergic receptor, Δ2-79 (ADRA1D, Homo sapiens, UniProt P25100)	antagonist, FLIPR	–	10 µM	–	inhibition	17.7%
C[C@@H](O)[C@H](NC(=O)[C@@H]1CSSC[C@H](NC(=O)[C@@H](Cc2ccccc2)NC(=O)CN2CCN(CC(=O)[O-])CCN(CC(=O)[O-])CCN(CC(=O)[O-])CC2)C(=O)N[C@@H](Cc2ccc(O)cc2)C(=O)N[C@H](Cc2c[nH]c3ccccc23)C(=O)N[C@@H](CCCCN)C(=O)N[C@@H]([C@@H](C)O)C(=O)N1)C(=O)O.[177Lu+3]	MEC1 treated with 200 µM zebularine	gamma counter	serum-free RPMI	30 min, 37 °C	–	uptake	0.554%
N[C@@H](CCC(=O)O)C(=O)O	Glutamate-gated chloride channel alpha (glc-1, Caenorhabditis elegans, UniProt G5EBR3)	ion current, agonist, two-electrode voltage clamp	Xenopus oocytes	0.1 to 100 mM	–	inward current	74 ± 46 nA
CC[C@H](C)[C@H](NC(=O)[C@H](Cc1ccccc1)NC(=O)[C@H](CCC(=O)O)NC(=O)[C@H](CCCNC(=N)N)NC(=O)[C@H](C)NC(=O)[C@H](C)NC(=O)[C@H](CCC(N)=O)NC(=O)[C@H](CCC(=O)O)NC(=O)[C@H](CCC(=O)O)NC(=O)[C@H](CC(C)C)NC(=O)[C@H](Cc1ccc(O)cc1)NC(=O)[C@H](CO)NC(=O)[C@H](CO)NC(=O)[C@@H](NC(=O)[C@H](CC(=O)O)NC(=O)[C@H](CO)NC(=O)[C@@H](NC(=O)[C@H](Cc1ccccc1)NC(=O)[C@@H](NC(=O)CNC(=O)[C@H](CCC(=O)O)NC(=O)[C@H](C)NC(=O)CCc1c[nH]cn1)[C@@H](C)O)[C@@H](C)O)C(C)C)C(=O)N[C@@H](C)C(=O)N[C@@H](Cc1c[nH]c2ccccc12)C(=O)N[C@@H](CC(C)C)C(=O)N[C@H](C(=O)N[C@@H](CCCNC(=N)N)C(=O)NCC(=O)N[C@@H](CCCNC(=N)N)C(=O)N[C@@H](CCCCNC(=O)COCCOCCNC(=O)COCCOCCNC(=O)CC[C@H](NC(=O)CCCCCCCCCCCCCCCCC(=O)O)C(=O)O)C(=O)NCC(=O)NCC(=O)N[C@@H](CO)C(=O)N[C@@H](CCCCNc1c(NCCCCCN(O)C(=O)CCC(=O)NCCCCCN(O)C(=O)CCC(=O)NCCCCCN(O)C(C)=O)c(=O)c1=O)C(=O)O)C(C)C [zirconium-89 labelled]	–	ex vivo gamma counting	rat, intestine content	subcutaneous, 3 nmol/kg, 72 h, together with: [89Zr]-labelled peptide	–	tissue uptake	0.05 %ID/g
C[C@@H](O)[C@@H](CO)NC(=O)[C@@H](CCCNC(=N)N)NC(=O)[C@@H]1CCCN1C(=O)[C@@H]1CSSC[C@H](NC(=O)[C@H](Cc2ccccc2)NC(=O)CN2CCN(CC(=O)O)CCN(CC(=O)O)CCN(CC(=O)O)CC2)C(=O)N[C@@H](Cc2ccc(O)cc2)C(=O)N[C@@H](Cc2ccccc2)C(=O)N[C@@H](CCC(N)=O)C(=O)N[C@@H](CC(N)=O)C(=O)N1 [gallium-68 labelled]	–	–	Wistar rat, healthy, Lacrimal gland	intravenous, 8 MBq, 30 min, mean	–	tissue uptake	0.15 %ID/g
O=C(c1ccc(Cl)cc1)N1CCN2C(=O)N(OC(=O)N3CCOc4ccccc43)C(=O)C2C1 (stereo not drawn)	Serine hydrolase RBBP9 (Homo sapiens, UniProt O75884)	MS-based ABPP	SW-620 conditioned medium	10 µM, 1 h, 37 °C, mean protein ratio	relative to: compound over DMSO	probe labelling ratio	1.48
COc1c(CCC[P+](c2ccccc2)(c2ccccc2)c2ccccc2)cc2c(c1OC)OCO2.[I-]	HCT-116	SRB	–	–	–	TGI	> -4 log M
CC(C)C[C@@H]1NC(=O)[C@H](CC(C)C)NC(=O)[C@H](Cc2c[nH]c3ccccc23)NC(=O)[C@H](CO)NC(=O)[C@H](Cc2c[nH]c3ccccc23)NC(=O)[C@@H]2CCCN2C(=O)[C@H](CC(C)C)NC(=O)[C@H](Cc2c[nH]cn2)NC(=O)[C@@H]2CCCN2C(=O)[C@H](CC(N)=O)NC(=O)[C@H](C)NC(=O)[C@H](Cc2ccc(O)cc2)NC(=O)[C@H](CS)NC(=O)[C@H](CCCCNC(=O)CN2CCN(CC(=O)O)CCN(CC(=O)O)CCN(CC(=O)O)CC2)NC1=O [lutetium-177 labelled]	–	OLINDA dosimetry	BALB/c mice, kidney	37 MBq, 7 days	–	total nuclear transformations	2880 MBq-s
C[C@@H](NC(=O)[C@@H](N)Cc1ccc(O)cc1)C(=O)NCC(=O)N(C)[C@@H](Cc1ccccc1)C(=O)NCCO	Oprm1 (Mus musculus, UniProt P42866)	agonist	mouse spinal cord membranes	178 nM	relative to: basal binding	GTPγS binding	-0.57% and 1.56% and -3.94% and 1.53%
O=C(Nc1cnccc1Cl)N1CCN(Cc2ccc3c(c2)OC(F)(F)O3)CC1	MCHR1 (Homo sapiens, UniProt Q99705)	radioligand binding	–	concentration not given	–	inhibition	2% and 12%
C[C@H]1CN(c2n[nH]c3nc(N[C@H]4CC[C@H](NS(=O)(=O)CCC(F)(F)F)CC4)ncc23)CCO1	PRKACA (Homo sapiens, UniProt P17612)	inhibitor, Kinobeads competition profiling	–	0.8 µM	relative to: vehicle	relative abundance	1.07
Nc1ncc(-c2nc(N3CCOCC3)nc(N3CCOCC3)n2)c(C(F)F)n1	SIK1 (Homo sapiens, UniProt P57059)	KINOMEscan	–	10 µM	relative to: control	remaining binding	100%
CN(C(=O)n1cnc(-c2ccc[n+]([O-])c2)c1)C1CCCCC1	CAMK2D (Homo sapiens, UniProt Q13557)	enzyme activity	–	10 µM, together with: autocamtide-2	–	inhibition	13%
COc1ccc(N2C(=O)N(c3c(C)cccc3Cl)Cc3cnc(Nc4ccc(C5CCN(C)CC5)cc4OC)nc32)nc1	CLK4 (Homo sapiens, UniProt Q9HAZ1)	kinase activity	–	0.5 µM	–	inhibition	34%
CC[C@H](C)[C@@H]1NC(=O)[C@@H]2CCCN2C(=O)[C@H](CC(C)C)NC(=O)[C@H](CC(C)C)NC(=O)CNC(=O)[C@@H](NC(=O)[C@@H](NC(=O)[C@H](CC(=O)O)NC(=O)CNC(=O)[C@@H](NC(=O)[C@H](C)NC(=O)CNC(=O)[C@H](CCCCN)NC(=O)[C@H](CC(C)C)NC(=O)[C@H](CC(C)C)NC(=O)[C@H](CCCCN)NC(=O)CNC(=O)[C@@H](NC(=O)[C@@H](N)CC(C)C)C(C)C)C(C)C)C(C)C)CSSC[C@@H](C(=O)O)NC1=O	–	RNA-seq, item: Gpr141	mouse, traumatic brain injury model, frontal cortex and hippocampus	dose not given	relative to: TBI alone	log2 fold change	-3.25
COc1cc(Nc2ncc(F)c(Nc3ccc4c(n3)NC(=O)C(C)(C)O4)n2)cc(OC)c1OC	CDK4 (Homo sapiens, UniProt P11802)	KINOMEscan	–	10 µM, -cyclinD3	–	inhibition	6%
O=C(Nc1cccnn1)N1CCC(=Cc2cccc(Oc3ccc(C(F)(F)F)cn3)c2)CC1	CYSLTR2 (Homo sapiens, UniProt Q9NS75)	radioligand binding	–	10 µM, together with: [3H]LTD4	–	inhibition of binding	0%
[2H]c1c([2H])c([C@]2([2H])CCCN2C(=O)C(C)(C)Oc2ccc3cn[nH]c3c2)c([2H])c([2H])c1C([2H])([2H])[2H]	MAPK10 (Homo sapiens, UniProt P53779)	KINOMEscan	–	1 µM	relative to: DMSO control	remaining binding	69%

A few entries again:
Structure (SMILES)	tested on	assay	system	conditions	scale	quantity	result
CC[C@@H](C)[C@@H](NC(=O)[C@@H](Cc1ccc(O)cc1)NC(=O)[C@H]1CCCN1C(=O)[C@@H](CCCNC(=N)N)NC(=O)[C@H](N)Cc1c[nH]cn1)C(=O)N[C@H](C)C(=O)N[C@H](Cc1c[nH]cn1)C(=O)N[C@H](CCCNC(=N)N)C(=O)N[C@H](CCCCNC(=O)c1cccc(S(=O)(=O)F)c1)C(=O)N[C@H](Cc1ccc(O)cc1)C(=O)N[C@H](CO)C(=O)N[C@H](Cc1ccccc1)C(N)=O	Transferrin receptor protein 1 (Tfrc, Mus musculus, UniProt Q62351)	flow cytometry	MC-38	6 h, unit not given	relative to: 0 h	surface TFRC expression	0.724
[2H]c1c([2H])c([C@]2([2H])CCCN2C(=O)C(C)(C)Oc2ccc3cn[nH]c3c2)c([2H])c([2H])c1C([2H])([2H])[2H]	MAPK10 (Homo sapiens, UniProt P53779)	KINOMEscan	–	1 µM	relative to: DMSO control	remaining binding	69%
